Published values pooled from the literature.
Numbered parts are unrelated; each lists some results of a single study.

Block 1
Target: Sal-like protein 4, full length isoform B (SALL4, Homo sapiens, UniProt Q9UJQ4-2, residues 1-616)
Method: universal PBM
Form: double-stranded DNA, one strand shown
Medium: in vitro
Tested at: not given
Notes: 8-mer, flanks averaged, mean of replicates
Direction: higher = stronger binding
| Oligonucleotide | E-score |
| --- | --- |
| AAACCGCT | -0.103 |
| AGGCGTAA | 0.0218 |
| ACATGACC | 0.0621 |
| ACCCTGAG | -0.309 |
| GGGATCTA | -0.124 |
| ACGAAATG | 0.0195 |
| AAGCTTGG | -0.0681 |
| TATCGGAA | 0.191 |
| AACACGAA | 0.149 |
| CACCGTGG | -0.343 |
| GGTATCGA | 0.00796 |
| CGGTAGCC | -0.31 |
| CCAGGTTA | -0.0993 |
| GGATTCCC | -0.299 |
| GAGAGCGC | -0.351 |
| CCCCAAAA | 0.113 |
| ACCGCAAG | -0.044 |
| ACGAGTCA | 0.0733 |
| GAATGGTC | -0.194 |
| GTACCTAC | -0.0942 |
| CAAGGCAA | 0.0118 |
| GATGAAGA | 0.105 |
| ACATGTGC | 9e-05 |
| CAGTACTA | 0.0688 |
| AGGTTTCC | -0.113 |

Block 2
Cell line: yeast with cyclin D1-Cln2 chimera
Effect on: cell growth
Mode: binder
Method: competitive growth deep sequencing
Form: peptide
Tested at: concentration not given
Notes: peptide tiling library
Direction: direction not given
| Molecule | growth enrichment score |
| --- | --- |
| PARRRLRLSVDEVSSP | -0.864 |
| KPITLDTTDFQESFVT | 1.14 |
| FREFEVEKQTAEETGL | 1.76 |
| AIRKMREDRWAVIAKM | 0.514 |
| IVLICAKRSLCAAFSV | -0.974 |
| SCCKRKLVVGNGPEGP | -0.803 |
| SAVPLILPQAPSGPSY | 1.51 |
| PLRKAKRARLCSSSSS | -0.18 |
| DSDSDSEGGAAGGEAD | 1.04 |
| DTERAHSTLDEDLERW | 1.16 |
| GQLVIPLDELTLDTSF | 1.72 |
| PAKRRLELGE | -0.125 |
| NARRSLNFGGSTGT | 0.101 |
| ESSQLTVQAEFDMSAI | 1.07 |

Block 3
Target: Prothrombin, mature alpha-thrombin (F2, Homo sapiens, UniProt P00734)
Method: aptamer microarray, sandwich
Form: DNA with 2'F-ANA
Medium: in vitro
Tested at: 200 nM
Notes: whole 15-mer aptamer, many near background
Added: Cy3 exosite-II aptamer, 400 nM
Direction: higher = stronger binding
Oligonucleotide: GGTTGGTGTGGTTGG
| Modification | mean fluorescence intensity [a.u.] |
| --- | --- |
| 2'F-ANA at 1 2 5 11 13 14 | 47.7 |
| 2'F-ANA at 1 3 4 5 7 9 10 13 | 45.7 |
| 2'F-ANA at 2 3 4 5 6 8 11 15 | 75.6 |
| 2'F-ANA at 1 3 4 5 7 8 10 12 13 14 15 | 199 |
| 2'F-ANA at 1 4 5 7 9 11 12 14 | 47.8 |
| 2'F-ANA at 2 7 8 10 14 | 89 |
| 2'F-ANA at 1 3 5 6 9 12 13 | 110 |
| 2'F-ANA at 2 4 10 11 14 15 | 57.6 |
| 2'F-ANA at 1 3 4 5 6 10 11 12 13 15 | 48 |
| 2'F-ANA at 7 12 | 991 |
| 2'F-ANA at 3 7 11 15 | 1110 |
| 2'F-ANA at 1 7 10 14 | 60.3 |
| 2'F-ANA at 1 2 3 5 9 11 14 15 | 48.6 |
| 2'F-ANA at 2 3 4 5 6 8 9 11 | 77.4 |
| 2'F-ANA at 3 4 6 7 9 10 13 14 15 | 161 |
| 2'F-ANA at 6 9 10 11 15 | 130 |

Block 4
Target: Fragile X messenger ribonucleoprotein 1, C-terminal low-complexity region (Fmr1, Mus musculus, UniProt P35922)
Method: RNA Bind-n-Seq
Form: RNA
Medium: in vitro
Tested at: 200 nM
Notes: whole 134-nt RNA, ends assumed
Added: 150 mM KCl
Baseline: input library
Direction: higher = stronger binding
All sequences stand within: GGGAGUUCUACAGUCCGACGAUC … UGGAAUUCUCGGGUGUCAAGG
| Oligonucleotide | log2 enrichment |
| --- | --- |
| CAAGUCCUGUGCUACACAUCGUAUGUACCGAAUCGGGUGGGUUUUUGGGUUUGGGAAAGUAUUAUGUUACGCCGUUCGGAUCUGCACUUC | 0.721 |
| CAAGUCCUGUGCUACACAUCGUAUGUACCGAAUCGGGGCCGGGCCGGGGCCGGGGAAAGUAUUAUGUUACGCCGUUCGGAUCUGCACUUC | 0.139 |
| CCUCAAGUCCUGUGCUACACAUCGUAUGUACCGAAUCGGGCCGGGCCGGCCGGAAAGUAUUAUGUUACGCCGUUCGGAUCUGCACUUCCA | -0.0683 |
| CCUCAAGUCCUGUGCUACACAUCGUAUGUACCGAAUCGGGGUUGGUUGGUUGGAAAGUAUUAUGUUACGCCGUUCGGAUCUGCACUUCCA | 0.259 |
| AAGUCCUGUGCUACACAUCGUAUGUACCGAAUCGGGGUUUGGUUUGGGGUUUGGGGAAAGUAUUAUGUUACGCCGUUCGGAUCUGCACUU | 0.477 |
| UAACUUUAGAGGAGGAUCUGAUGGAUAUGGCAGUGGACGUGGAUUUGGGGAUUGCUAUAAUGGGUAUGGAGGAGGACCUGGAGGUGGCAA | 0.348 |
| CAAGUCCUGUGCUACACAUCGUAUGUACCGAAUCGGGGCCCCGGCCCCGGCCCCGGAAAGUAUUAUGUUACGCCGUUCGGAUCUGCACUU | -0.644 |
| ACCAUGCAGGUGGGCAUCUUUGGGAAGUGGGGCAAGGGGGGGAUAGGGAGGGGUGUAACACUUUGGGAACAGGUGGUCCCAGGUCGUUUC | 0.764 |
| AAGUCGCGUGUCUAGGUGAGUCGCGGUGGGUCCUCGCUUGCAGUUCAGCGACCACGGUGGGUACCGUUUUUGCGAGGAUUGUUUGUCCCC | -1.39 |

Block 5
Target: RNA binding protein fox-1 homolog 2, RRM domain, GST-SBP tag (RBFOX2, Homo sapiens, UniProt O43251-10, residues 100-194)
Method: RNA Bind-n-Seq
Form: RNA
Medium: in vitro
Tested at: 365 nM
Notes: natural RNA segment, single round, ends assumed
Baseline: no-protein control
Direction: higher = stronger binding
All sequences stand within: GGGAGUUCUACAGUCCGACGAUC … UGGAAUUCUCGGGUGCCAA
Residues (chain): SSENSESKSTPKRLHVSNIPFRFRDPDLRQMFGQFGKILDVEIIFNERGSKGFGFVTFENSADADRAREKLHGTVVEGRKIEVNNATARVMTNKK
| Oligonucleotide | RBNS enrichment (R) |
| --- | --- |
| CAGGUAACCUUGAGCUCAGCUUGGGCCAGCUUUGAACAGUGCUUCUGAGGUCCCCAGAGACCAAAGCCAGAUCGUCUGUCCCCCACACCUUAGGUGGGCACAGGAGGGCC | 0.251 |
| UUUUGUUGUUUUGUUGUUUUGUUUUAAUCCUAUGUGACAAUUCCAACUAUGCGGUUACCCUCUGAGGAUAAGUUCCUCAGCCCGGGGUUCUUUUAUAUGCUGUGUCCUUU | 0.419 |
| CAGCUGUGGUGGCUAAAGGGAAUAUGUUAAUUAAGCAAGAGGUUCUUUUCUAAAAGUGGUAUCUGUUAUCCACAAUGUAUUUUAGUUAUUCCCACAAGUCAGGGGUCCAG | 0.85 |
| UCCGUCUACUCACAGAACAGUACUUUCUGGAAUAUUAUGGGGGAUUGUACCAAAACAAGAACCACUUAAACAAUGCCUAGGGAAUGAUAAGGAGGAGGAAAAUCCCAGGU | 0.551 |
| AUAUUAUCAUGUCAGACACCUUCAGCCACAGCACAAAGUUUUAAUGUCUUUAAGAAAAAGAAAUCAAUCUGCAGAAAUGUGAAGAUUUGCAAGCAGUGUAAACUGCAACU | 0.581 |
| ACUGGGCUACUCCAUGACCAGGGGCAAAAUAGGCUUUUACCGCUGCGUUCUGGGAGCUCCUCCCCCUUCUGGGAGCUCCUCCCCCUCCCCAGAAGGCCAAGGGAUGUGGG | 0.453 |
| UUUAAAAGAAAAGAAGAAAAAAAACACCCAACCACACAAAGAACAAAACCAGUAACAAACACAAAGGAAUUCAGGGUCGCUUUGCUUGCUCUCUGUGCUCCGUGGAGGCC | 0.409 |
| CUUCUGCUCUUGGCCCCUCUGGCCAGGGCCCCUGUGGCUUCCUGCACACUGGACAGGUGACUGUAUGGUAGAGACUGUGAUCUGGGAACUUUUUGCUGUACAAAUCUGUU | 0.506 |

Excerpt of the above (block 1):
| Oligonucleotide | E-score |
| --- | --- |
| GTACCTAC | -0.0942 |
| CAAGGCAA | 0.0118 |
| GATGAAGA | 0.105 |
| ACATGTGC | 9e-05 |
